Experimental data from different studies.
Protocols differ between the studies behind these lines. “And” joins repeats or separate records; there may be more than shown.
PRKG1 isoform beta: cGMP-dependent protein kinase 1, isoform beta (PRKG1, Homo sapiens, UniProt Q13976)
PRKG1: cGMP-dependent protein kinase 1 (PRKG1, Homo sapiens, UniProt Q13976)

`CN1CC[C@@H](COc2cnc(C#N)cc2-c2ccn3nc(NC(=O)C4CC4)cc3c2)C1` gave an inhibition of -6% (PRKG1 isoform beta; inhibitor, KinaseProfiler panel; 1 µM).
`CNC(=O)C[C@H](Cc1ccc(C#N)cc1)NC(=O)c1cc(-c2ccc(CN[C@H](C)c3ccc(C)cc3)o2)ccc1Cl` — result for “activity vs control”: 94% (PRKG1; enzyme activity, inhibitor; 1 µM).
`COc1c(Cl)cccc1Nc1c(-c2ccncc2C#C[C@@]2(C)CCCN2C(=O)/C=C/CN(C)C)[nH]c2c1C(=O)NCC2` gave a remaining binding of 100% (PRKG1; binding, competition with immobilised ligand; 3 µM).
The inhibition of `C=CC(=O)Nc1cccc(-c2cnc3[nH]cc(C(=O)NC(C)(C)C)c3n2)c1` is reported as 6% and 4% (PRKG1; kinase activity; 0.1 µM).
For `COc1ccc(NC(=O)Nc2ccc3c(c2)C(=O)N(C(C)CO)CC(C)C(CN(C)Cc2ccc4c(c2)OCO4)O3)cc1` (stereo not drawn), the remaining activity was 105% (PRKG1 isoform beta; kinase activity, KinaseProfiler; 0.03 µM, species human; reference: control).
`O=C=[N][Ru-4]123([n]4c5ccc(O)cc5c5c6c(c7cc(F)c[n+]1c7c54)C(=O)NC6=O)[S+]1CC[S+]2CC[S+]3CC1` (stereo not drawn) has a remaining activity of 25% (PRKG1; enzyme activity; 100 nM, human enzyme, with: 10 µM ATP; reference: untreated).
`Cc1cnc2nc1Nc1cccc(c1)COC/C=C/COCc1cc(ccc1OCCN1CCOCC1)N2` has a remaining binding of 100% (PRKG1; binding; 0.1 µM).
With `Cc1ccc(-c2c(/C=C(\C#N)C(=O)NC(C)C)n(CCCO)c3ncnc(N)c23)cc1` the remaining binding was 100% (PRKG1; cell-free assay, competition with immobilised ligand; 1 µM).
For `Cc1cccc(O[C@H]2CCC[C@@H](C(C)CNCc3ccncc3)C2)c1` (relative stereo), the inhibition was -11% (PRKG1; enzyme activity, inhibitor; 10 µM).
`COc1cc(Nc2nc(C)cc(-c3cnn4nc(OC)ccc34)n2)cc(C(F)(F)F)c1` gave a remaining activity of 92% (PRKG1; inhibitor; 1 µM; reference: control).
For `CCN1CCN(Cc2ccc(C(=O)Nc3ccc(C)c(NCc4cnc5[nH]ccc5c4OC)c3)cc2C(F)(F)F)CC1`, the remaining binding was 100% (PRKG1; binding, competition with immobilised ligand; 1 µM).
`Nc1ncc(-c2cc(-c3cnn(CC(F)(F)F)c3)ncc2F)nc1C(=O)NC1CNCC(F)C1` (stereo not drawn) gave a remaining activity of 98.3% (PRKG1 isoform beta; enzyme activity; 1 µM; reference: DMSO control).
With `O=C(Cc1ccc(OCc2ccccc2)cc1)NC1(C(=O)O)CCN(C(=O)c2ccc(-c3cccc(Cl)c3)cc2)CC1` the remaining activity was 107% (PRKG1 isoform beta; kinase activity, inhibitor; 10 µM, with: ATP at Km).
With `CC(C)=CC1OC(C)(C)C2C=C3C(=O)C(Cl)=CC(O)C3C3C(O)C4OC4C(=O)C132` (stereo not drawn) the remaining binding was 63% (PRKG1; cell-free assay, competition with immobilised ligand; 10 µM).
The inhibition of `NC(=O)C[C@H]1CCc2sc3ncnc(O[C@H]4CC[C@H](N5CCOCC5)CC4)c3c21` is reported as -1% (PRKG1; radioisotope kinase; 10 µM).
`CNC1C[S+]2CC[S+]3CC[S+](C1)[Ru-4]321([N]=C=S)[n]2c3ccc(OC)cc3c3c4c(c5cc(F)c[n+]1c5c32)C(=O)NC4=O` (stereo not drawn) has a remaining binding of 63% (PRKG1; KinomeScan; 0.1 µM; reference: untreated).
The inhibition of `NC(=O)[C@@H](O)C[C@H]1CCc2sc3ncnc(O[C@H]4CC[C@H](N5CCOCC5)CC4)c3c21` is reported as -3% (PRKG1; radioisotope kinase; 10 µM).
With `C=CC(=O)N1CCCC(n2c(=O)c3ncccc3n(Cc3ccc(Oc4ccccc4)cc3)c2=O)C1` (stereo not drawn) the remaining binding was 97% (PRKG1; cell-free assay, competition with immobilised ligand; 1 µM).
`Cc1nc2c(F)cc(-c3nc(Nc4ccc(CNC(=O)CCCCCCC(=O)NO)cc4)ncc3F)cc2n1C(C)C` has an inhibition of 81% (PRKG1; enzyme activity, inhibitor; 1 µM).
For `COc1c(OCCCN2CCOCC2)ccc2c1N=C(NC(=O)c1cnc(N)nc1)N1CCN=C21`, the remaining activity was 89% (PRKG1 isoform beta; kinase activity, inhibitor; 1 µM; reference: untreated control).
With `C=CC(=O)N1Cc2nc(-c3cc(-c4cc(Cl)cnc4Cl)c(F)cc3F)n(-c3ccncn3)c2C1` the inhibition was 3% (PRKG1; cell-free assay, inhibitor; 1 µM).
